Results gathered from unrelated publications.
Numbered parts are unrelated; each lists some results of a single study. Positions count from the first letter of the parent shown.

Sample 1 — technique: protein binding microarray; molecule type: double-stranded DNA, one strand shown; sample: in vitro; tested at: not given; baseline: not given; reading: higher = stronger binding
Target: Histone acetyltransferase KAT6A, winged helix 2, GST fusion (KAT6A, Homo sapiens, UniProt Q92794, residues 85-181)
Notes: 8-mer, flanks averaged, mean of 2 arrays, mostly near background
Residues (chain): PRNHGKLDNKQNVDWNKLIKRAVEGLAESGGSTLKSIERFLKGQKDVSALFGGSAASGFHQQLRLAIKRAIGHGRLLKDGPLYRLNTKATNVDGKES
Oligonucleotide	E-score
CGGCACGC	0.146
GTCAAAGA	0.115
CGCGGTGA	0.0446
CGGTCTAG	-0.103
CCAACTAA	-0.0725
GTTCCACA	-0.0483
AGCCCATG	-0.122
ACACATGA	-0.153
CGCGTGGA	-0.016
AGGGGAAA	-0.0338
GACATCCC	0.00583
ATCCTCAG	0.026
GCAGCCGC	0.181
CGATGAAG	0.0517
AAGGCAAC	0.185
ACGCTCAC	-0.0871
CCCAATTA	-0.135
ATGATAAT	0.0385
AGGGCGCA	0.116
ACGACCCC	-0.11
AAAACCTA	0.0849
GGCTTGAA	0.0317
AGTCGGCA	-0.0338
AGGAGGTC	0.00881

Sample 2 — technique: DHFR PCA, deep sequencing; sample: yeast; together with: (+)-ABA 0.032 µM; baseline: wild-type fitted maximum; reading: higher = stronger binding
Target: ABI1, truncated, D143A, DHFR fusion (Arabidopsis thaliana)
Notes: methotrexate growth selection, single substitutions
Starting sequence: PYL1, truncated, DHFR fusion (Arabidopsis thaliana); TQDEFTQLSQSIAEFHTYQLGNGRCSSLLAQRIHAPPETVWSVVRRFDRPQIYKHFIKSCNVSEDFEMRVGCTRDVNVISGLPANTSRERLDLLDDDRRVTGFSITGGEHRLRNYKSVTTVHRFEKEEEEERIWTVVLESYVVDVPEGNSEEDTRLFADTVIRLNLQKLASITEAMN; partner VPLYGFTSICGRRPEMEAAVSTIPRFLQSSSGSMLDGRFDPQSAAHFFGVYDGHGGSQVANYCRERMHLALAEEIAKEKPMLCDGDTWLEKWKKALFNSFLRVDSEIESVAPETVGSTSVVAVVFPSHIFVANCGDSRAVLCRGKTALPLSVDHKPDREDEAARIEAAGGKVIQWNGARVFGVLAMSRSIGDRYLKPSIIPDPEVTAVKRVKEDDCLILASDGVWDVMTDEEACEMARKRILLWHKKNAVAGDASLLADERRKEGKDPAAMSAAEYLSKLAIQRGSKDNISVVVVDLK
Change	relative binding score
N22D	46.3%
L94K	-6.34%
H34I	17.8%
T120K	1.34%
R163N	-9.51%
D48E	3.47%
L166Y	-2.93%
V40R	3.63%
D65S	8.66%
D96R	-1.15%
Q10L	7.16%
S104G	0.363%

Sample 3 — technique: RNA Bind-n-Seq; molecule type: RNA; sample: in vitro; tested at: 200 nM; notes: whole 134-nt RNA, ends assumed; together with: 150 mM LiCl; baseline: input library; reading: higher = stronger binding; all molecules: 7-deaza-guanosine replaces G
Target: Fragile X messenger ribonucleoprotein 1, C-terminal low-complexity region (Fmr1, Mus musculus, UniProt P35922)
Oligonucleotide	log2 enrichment
GGGAGUUCUACAGUCCGACGAUCUCCUCAAGUCCUGUGCUACACAUCGUAUGUACCGAAUCGGGGUGGUGGUGGAAAGUAUUAUGUUACGCCGUUCGGAUCUGCACUUCCAGCUGGAAUUCUCGGGUGUCAAGG	-0.995
GGGAGUUCUACAGUCCGACGAUCUAUCCCCUAUGAGGCACCACGUAAGACCUCCUGCCCUUAGCUCUCUUGCUCACCACCCAAGAACCUCAGGACAGAAGCGAGAGCCCAUUGUGGAAUUCUCGGGUGUCAAGG	2.1
GGGAGUUCUACAGUCCGACGAUCAAGUCCUGUGCUACACAUCGUAUGUACCGAAUCGGAAAAGGGGAAAAGGGAAAAGGAAAGUAUUAUGUUACGCCGUUCGGAUCUGCACUUUGGAAUUCUCGGGUGUCAAGG	-0.509
GGGAGUUCUACAGUCCGACGAUCUGGGAGGUGGAUUUUGUUUAUUUUUUUAGCUCAUUUCCAGGGGUGGGAAUUUUUUUUUAAUAUGUGUCAUUAAUAAAGUUGUUUUUGAAAUGGAAUUCUCGGGUGUCAAGG	-0.234

Sample 4 — technique: RNA Bind-n-Seq; molecule type: RNA; sample: in vitro; tested at: 100 nM; baseline: input RNA pool; reading: higher = stronger binding
Target: RING finger protein unkempt homolog, zinc fingers 1-6, SBP tag (UNK, Homo sapiens, UniProt Q9C0B0, residues 30-357)
Sequence of UniProt Q9C0B0 (30-357, looked up): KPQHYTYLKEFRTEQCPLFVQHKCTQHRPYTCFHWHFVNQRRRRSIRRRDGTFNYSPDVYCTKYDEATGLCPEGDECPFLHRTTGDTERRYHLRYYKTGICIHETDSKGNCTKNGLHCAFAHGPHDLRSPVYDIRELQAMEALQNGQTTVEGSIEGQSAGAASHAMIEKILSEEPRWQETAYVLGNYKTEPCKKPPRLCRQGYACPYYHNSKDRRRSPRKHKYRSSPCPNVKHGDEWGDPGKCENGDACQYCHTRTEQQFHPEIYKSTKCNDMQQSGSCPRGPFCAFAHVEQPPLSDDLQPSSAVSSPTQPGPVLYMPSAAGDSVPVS
Notes: RNA with constant flanks, vertebrate orthologous sites, ends assumed
Oligonucleotide	bound/input enrichment
GGGAGUUCUACAGUCCGACGAUCAGGGAGAAGAGUUCACAAACUCAAAGGGAAACUAUUAAAGAAUUCCUAAUAGUUAAAAGCUAGGAAAGAUUAGGACAACUUUACAAAUGAGCAAUUAAAAAGAAAAAGGCUACGGGAACCCAACAGAGGAUUGAGCAUCA	1.07 ratio
GGGAGUUCUACAGUCCGACGAUCUUGGGAACAGCUCUCCAAAUAGGAAUAGUAGUAAAAAAAAUAAGCAAAAUGAUAUUUGUAUAGAAAAAACAGAAGUUAAAUCAUGUAAAGUAAAUGCUGCCAACCUUCCAGGUCCUAAAGCAACAGAGGAUUGAGCAUCA	1.8 ratio
GGGAGUUCUACAGUCCGACGAUCGGGCGGCCGGUGGGGGAAUCCCCUGCCUUGGCCUUGCCUCCCCUUCCUGCCACGUGCCCCUAGUUAUUUUUUUUUUUUUAACACCAUGUGAUUAAGGUCGGCGCUGCCUCCCCCGACCCACAACAGAGGAUUGAGCAUCA	3.6 ratio
GGGAGUUCUACAGUCCGACGAUCUGAAAGUUACAGACAAGAGUCUGAAAACAGAAAUACAGGGUCUUGGUUAUCAUCAUCUUUAAGGAACAGAUGUACACCACUGUUCUCUAGAAGGAGGAGAGAAGGAAGAGAUGAAUCUGCCAACAGAGGAUUGAGCAUCA	0.418 ratio

Sample 5 — technique: competition protein-binding microarray; molecule type: double-stranded DNA, one strand shown; sample: in vitro; tested at: 2 µM; together with: Pho4 competitor, 0.05 µM; reading: higher = stronger binding; shared flanks, not repeated: … GTCTTGATTCGCTTGACGCTGCTG
Target: Centromere-binding protein 1, full length, His-tagged (CBF1, Saccharomyces cerevisiae, UniProt P17106, residues 1-351)
Sequence of UniProt P17106 (whole entry, looked up): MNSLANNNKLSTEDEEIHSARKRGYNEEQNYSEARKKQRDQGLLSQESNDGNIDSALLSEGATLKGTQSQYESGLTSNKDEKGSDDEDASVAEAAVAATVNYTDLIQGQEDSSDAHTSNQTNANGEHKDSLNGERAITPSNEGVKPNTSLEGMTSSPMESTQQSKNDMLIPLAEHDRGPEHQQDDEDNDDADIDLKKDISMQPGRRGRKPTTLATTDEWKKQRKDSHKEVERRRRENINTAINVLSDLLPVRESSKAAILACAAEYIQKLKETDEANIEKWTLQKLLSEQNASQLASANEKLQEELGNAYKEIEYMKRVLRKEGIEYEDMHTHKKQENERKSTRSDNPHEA
Notes: whole 60-bp probe, lowest competitor level
Oligonucleotide	fluorescence intensity [a.u.]
GGATGAAGTAGGAAACTCGTGAATATATAAACCCCG	107
GACAAGCATTTCGACCACGTTTTGTACAAGGAATCC	169
GAAAGCACTTTACTTCACGTGGGTACTATTCAGGTT	1020
GTCTTGTCTCATTGCAGAGTGGGTGTCCCCACTTCA	80.3
CCACCGCCGGATGCCTACGTGGTGAAGGGAGACAAA	53
TTGGGGTTTATATCGCACGCTTATATTTGGGCCAGC	98.3
CCAAGTTAGAAGAAACATGTGACGCCATTTCTGCGG	1100
GTCTTGTCTCATTGGAATGTGGGTGTCCCCACTTCA	73.5
CGAGTGTCATATTATATTAGATATTCATTTTTTTGC	90.3
TGCGCAACAACTTGTCGAGTGGGTGTATGTCTAGAA	67.2
GTTACCATTGTCCATCACGATCAAGAAACTCGCTGT	74
GTCTTGTCTCATTGACACGTGTTTTTCCCCACTTCA	1390
TTTTAGAGGAAAGAGAACGTGGTGAAAAAGTCAAAA	105

Sample 6 — target: UBE2T UBC core domain (UniProt Q9NPD8); technique: yeast two-hybrid; sample: yeast; notes: mostly zero background; baseline: not given; reading: higher = stronger interaction
B1: RNF152 RING domain (UniProt Q8N8N0); chain ETLSQDSLLECQICFNYYSPRRRPKLLDCKHTCCSVCLQQMRTSQKDVRCPWCRGVTKLPPGFS
B2: TRIM26 RING domain (UniProt Q12899); chain PLRSLEEEVTCSICLDYLRDPVTIDCGHVFCRSCTTDVRPISGSRPVCPLCKKPFKKENIRP
B3: TRIM22 RING domain (UniProt Q8IYM9); chain VKVDIEKEVTCPICLELLTEPLSLDCGHSFCQACITAKIKESVIISRGESSCPVCQTRFQPGNLRP
Target sequence (chain): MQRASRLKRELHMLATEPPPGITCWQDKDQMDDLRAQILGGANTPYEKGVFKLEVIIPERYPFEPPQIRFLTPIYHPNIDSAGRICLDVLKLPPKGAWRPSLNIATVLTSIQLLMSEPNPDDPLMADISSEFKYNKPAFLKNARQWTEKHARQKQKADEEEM
Sequence	lacZ reporter activity
B1 (RNF152 RING domain)	0
LGTKLEAKYLCSACRNVLRRPFQAQCGHRYCSFCLASILSSGPQNCAACVHEGIYEEGIS (TRAF2 RING domain (UniProt Q12933))	0
B2 (TRIM26 RING domain)	0
B3 (TRIM22 RING domain)	0
LDAASGHPLVCPLCHGQYERPCLLDCFHDFCTGCLRGRATDGRLSCPLCQHQTLVKGPSG (Rnf207 RING domain (UniProt Q3V3A7))	0
AEADPLGRFTCPVCLEVYEKPVQVPCGHVFCSACLQECLKPKKPVCGVCRSALAPGVRAV (RNF114 RING domain (UniProt Q9Y508))	0

Sample 7 — technique: protein-binding microarray; molecule type: double-stranded DNA, one strand shown; sample: in vitro; tested at: not given; reading: higher = stronger binding
Target: Protein C-ets-1 (ETS1, Homo sapiens, UniProt P14921, residues 1-441, Y397A, full length assumed)
Notes: k-mer, scored over probes, only values ≥0.25
Target sequence (chain): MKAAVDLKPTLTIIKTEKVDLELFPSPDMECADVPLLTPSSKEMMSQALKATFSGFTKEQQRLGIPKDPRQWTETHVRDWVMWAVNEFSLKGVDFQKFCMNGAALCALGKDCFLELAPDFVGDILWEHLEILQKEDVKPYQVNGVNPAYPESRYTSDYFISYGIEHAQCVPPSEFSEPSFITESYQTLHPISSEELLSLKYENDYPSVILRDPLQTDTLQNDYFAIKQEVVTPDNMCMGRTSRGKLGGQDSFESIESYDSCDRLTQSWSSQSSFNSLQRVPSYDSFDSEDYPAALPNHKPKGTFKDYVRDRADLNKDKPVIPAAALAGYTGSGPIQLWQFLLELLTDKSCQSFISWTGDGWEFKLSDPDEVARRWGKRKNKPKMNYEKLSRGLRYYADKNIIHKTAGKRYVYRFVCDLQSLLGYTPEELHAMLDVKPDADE
Oligonucleotide	E-score
CACATTAC	0.304
TCGTGCAA	0.255
ACAAATAT	0.319
ATGTTTGC	0.263
CAAGACAA	0.256
AGGGGAGG	0.329
CATGACAA	0.274
GTGTCGGA	0.291
GCGCCACA	0.266
ATTGTTGG	0.272
